Results of several laboratories.
Each line is one published result; not all experiments were run side by side. Several values in a cell are separate wells, animals, samples, runs or records. ± marks the error that the study gave. Values after ≈ are worked out from the molar mass of the structure shown.

SMILES	organism	test	system	setting	how to read	measurement	value
CN(C)c1nc(NCc2ccccc2F)c(/N=N/c2ccc(Cl)cc2)c(N(C)C)n1	Plutella xylostella	leaf dipping		200 mg/L, 96 h		mortality	76.7 ± 5.8%
OB(O)c1ccc(C(F)(F)F)s1	Staphylococcus aureus	OD600	USA300 fphE::Tn transposon mutant	100 µM	reference: wild type	growth	29.2% and 46.1% and 58.6% and 52% and 43.5% and 46.6%
O=C(c1cccc(-c2ccc3ncnc(Nc4ccc(OCc5cccc(F)c5)c(Cl)c4)c3c2)c1)N1CCOCC1	Plasmodium falciparum	parasite growth, SYBR Green	D6	blood stage		EC50	760 nM
CCOC(=O)C1(Cc2ccc(C#N)cc2)Oc2cc(F)ccc2N(Cc2ccc(C#N)cc2)C1=O (stereo not shown)	Arabidopsis thaliana	stem length, petri dish germination	Col-0, 1/2 MS medium	200 µg/mL, 7 days, 22 °C, dark		inhibition	51.5%
C[C@H]1Cc2c([nH]c3cc(Cl)c(F)cc23)[C@@]2(N1)C(=O)Nc1ccc(Cl)cc12	Plasmodium falciparum	parasite growth	3D7			EC50	1.5 ± 0.2 nM
CCOC(=O)C1(Cc2ccccc2C#N)Oc2cc(F)ccc2N(Cc2ccccc2C#N)C1=O (stereo not shown)	Arabidopsis thaliana	root length, petri dish germination	Col-0, 1/2 MS medium	50 µg/mL, 7 days, 22 °C, dark		inhibition	31.7%
CC(C)[C@H]1NC(=O)[C@H](Cc2ccccc2)NC(=O)[C@@H](C(C)C)NC(=O)[C@@H](C)NC(=O)[C@H](CO)NC(=O)[C@@H](Cc2c(-c3ccc(C4CCCCC4)cc3)[nH]c3ccccc23)NC(=O)[C@@H](CO)NC1=O	Candida albicans	broth dilution				MIC90	> 50 µM
CC(C)C[C@H](NC(=O)[C@H](Cc1ccccc1)NC(=O)[C@H](CCC(N)=O)NC(=O)[C@H](Cc1ccc(O)cc1)NC(=O)[C@H](CCCCN)NC(=O)[C@@H]1CCCN1C(=O)[C@H](CCCNC(=N)N)NC(=O)[C@H](CCC(N)=O)NC(=O)[C@H](Cc1c[nH]c2ccccc12)NC(=O)[C@H](CS)NC(=O)[C@H](Cc1c[nH]c2ccccc12)NC(=O)[C@H](Cc1ccccc1)NC(=O)[C@H](CCCNC(=N)N)NC(=O)[C@H](CCCCN)NC(=O)[C@H](CCCCN)NC(=O)[C@H](CCCCN)NC(=O)[C@@H](NC(=O)[C@@H](NC(=O)[C@H](CC(C)C)NC(=O)[C@@H](N)CO)C(C)C)[C@@H](C)O)C(=O)O	Micrococcus luteus		NCTC 2665			MBC	8 µg/mL (≈ 3.03 µM)
C#CCN1C(=O)C(CC#C)(C(=O)OCC)Oc2ccccc21 (stereo not shown)	Arabidopsis thaliana	measured: KARI	Col-0, leaves	concentration not given, 72 h, 30-day-old plants	reference: water-treated	mRNA level	~4 fold
C[C@H]1[C@H](OC(=O)CCC(=O)OCc2nnn(-c3cc4ccc(O)cc4oc3=O)c2COC(=O)CCC(=O)O[C@@H]2O[C@@H]3O[C@@]4(C)CC[C@H]5[C@H](C)CC[C@@H]([C@H]2C)[C@@]35OO4)O[C@@H]2O[C@@]3(C)CC[C@H]4[C@H](C)CC[C@@H]1[C@@]24OO3	Plasmodium berghei		NK65/GFP, infected mice	oral gavage, 65 µmol/kg once daily, 96 h dosing period		cured mice	0%
CCN(CC)CCO.O=C(O)C(Cl)Cl	Xanthium sibiricum			15 mg/mL, 21 days, pre-emergence, greenhouse		herbicidal inhibition	0%
CC(C)(C)OC(=O)N[C@@H](Cc1ccc(O)cc1)C(=O)N1CC[C@@H]2O[C@@H]3c4ccccc4OC(C)(C)[C@H]3C[C@@H]2C1	HIV-1 subtype C	viral replication		96 h		IC50	46100 nM
CCCN1C(=O)C(CCC)(C(=O)OCC)Oc2cc(F)ccc21 (stereo not shown)	Arabidopsis thaliana	root length, petri dish germination	Col-0, 1/2 MS medium	50 µg/mL, 7 days, 22 °C, dark		inhibition	58.5%
CN(C(=O)c1ccn2ncc(-c3ccc(C(N)=O)cc3)c2c1)c1ccc(C#N)cn1	Cryptosporidium parvum		UGA1 Nluc, IFN-gamma knockout C57BL/6 mice, faeces	oral, 10 mg/kg daily, 96 h post infection, treatment days 3-9	higher means more parasites	faecal Nluc luminescence	1670 a.u. and 169 a.u. and 601 a.u. and 96 a.u. and 2760 a.u.
Cc1cc(C(=O)Nc2nc3cccc(C)c3n2[C@H]2CCCCN(C(=O)/C=C/CN(C)C)C2)ccn1	Trypanosoma brucei brucei		2T1 wild type	50 x EC50		survival	-0.047% and -0.095% and -0.109% and -0.059%
O=C(c1ccc(-c2ccc3ncnc(Nc4ccc(OCc5cccc(F)c5)c(Cl)c4)c3c2)cc1)N1CCOCC1	Plasmodium falciparum	parasite growth, SYBR Green fluorescence	W2, drug-resistant			EC50	860 nM
CC[C@H](C)CCCCC(=O)N[C@@H](CCN)C(=O)N[C@H](C(=O)N[C@@H](CCN)C(=O)N[C@H]1CCNC(=O)[C@H]([C@@H](C)O)NC(=O)[C@H](CCN)NC(=O)[C@H](CCN)NC(=O)[C@H](CC(C)C)NC(=O)[C@@H](CC(C)C)NC(=O)[C@H](CCN)NC1=O)[C@@H](C)O	Escherichia coli	daily serial passaging	ATCC 8739	highest sub-MIC, 35 days	reference: initial MIC	MIC fold change	1.95
CC(=O)c1c(O)c(C)c(O)c2c1OC1=CC(=O)C(=C(C)NCCCC(=O)OC3OC4OC5(C)CCC6C(C)CCC(C3C)C46OO5)C(=O)C12C (stereo not shown)	Plasmodium berghei		ANKA GFP, NMRI mouse	oral, 4 x 10 mg/kg		mean survival time	10 days
CCCCCCCCCCCC(=O)NCCCC[C@H](NC(=O)CCCCCCCCCCC)C(=O)N[C@@H](CCCCNC(=O)CCCCCCCCCCC)C(=O)NCC(=O)NCC(=O)NCC(=O)N[C@@H](CS)C(=O)N[C@@H](CCCNC(=N)N)C(=O)N[C@@H](CCCCN)C(=O)N1CCC[C@H]1C(=O)N[C@@H](CS)C(=O)N[C@@H](CCCNC(=N)N)C(=O)N[C@@H](CCCCN)C(=O)N1CCC[C@H]1C(N)=O	Candida albicans	broth microdilution	SP 3902, RPMI-1640	48 h, 30 °C		MIC	> 128 µM

SMILES	organism	test	system	setting	how to read	measurement	value
Fc1cccc(COc2ccc(Nc3ncnc4ccc(-c5cccc(N6CCCCC6)c5)cc34)cc2Cl)c1	Plasmodium falciparum	parasite growth, SYBR Green	D6	blood stage		EC50	640 nM
CCOC(=O)C1(Cc2ccccc2)Oc2cc(C)ccc2N(Cc2ccccc2)C1=O (stereo not shown)	Arabidopsis thaliana	stem length, petri dish germination	Col-0, 1/2 MS medium	200 µg/mL, 7 days, 22 °C, dark		inhibition	100%
[O-][N+]1=C(c2ccc(Cl)cc2)C2=NCCCCN2c2ccccc21	Fusobacterium nucleatum	microbial growth				MIC50	0.5 µg/mL (≈ 1.53 µM)
CC(=O)c1c(O)c(C)c(O)c2c1OC1=CC(=O)C(=C(C)NCCCCOC3OC4OC5(C)CCC6C(C)CCC(C3C)C46OO5)C(=O)C12C (mixture of isomers)	Plasmodium berghei		ANKA GFP, NMRI mouse	oral, 4 x 100 mg/kg		mean survival time	23.3 days
Cc1cc(Cl)cc(S(C)=NC#N)c1NC(=O)c1cc(Br)nn1-c1ncccc1Cl (stereo not shown)	Spodoptera litura	leaf-dip	third instar larvae	6.25 ppm, 24 h		mortality	0%
CN(C)c1nc(NCc2cc(Cl)c(F)cc2F)c(/N=N/c2ccc(Cl)cc2)c(N(C)C)n1	Plutella xylostella	leaf dipping		200 mg/L, 96 h		mortality	46.7 ± 5.8%
CCOC(=O)C1(CC)Oc2cc(F)ccc2N(CC)C1=O (stereo not shown)	Arabidopsis thaliana	root length, petri dish germination	Col-0, 1/2 MS medium	200 µg/mL, 7 days, 22 °C, dark		inhibition	100%
CCc1nn(C)c2nc(-c3ccc(C(=O)O)cc3)nc(NCc3ccccc3)c12	Cryptosporidium parvum		HCT-8	3 x EC90, 72 h	reference: DMSO control	parasite number	41.9% and 41.4% and 50.9% and 48.8%
COc1cccc(COc2ccc(Nc3ncnc4ccc(-c5ccc(S(=O)(=O)N6CCOCC6)cc5)cc34)cc2Cl)c1	Plasmodium falciparum	parasite growth, SYBR Green fluorescence	C235 (TM91C235), drug-resistant			EC50	350 nM
CCCCCCCC(=O)NCCCC[C@H](NC(=O)CCCCCCC)C(=O)N[C@@H](CCCCNC(=O)CCCCCCC)C(=O)NCC(=O)NCC(=O)NCC(=O)N[C@@H](CS)C(=O)N[C@@H](CCCNC(=N)N)C(=O)N[C@@H](CCCCN)C(=O)N1CCC[C@H]1C(N)=O	Candida albicans	broth microdilution	SP 3902, RPMI-1640	48 h, 30 °C		MIC	> 128 µM
CN1CCN(S(=O)(=O)c2cccc(-c3ccc4ncnc(Nc5ccc(OCc6cccc(F)c6)c(Cl)c5)c4c3)c2)CC1	Plasmodium falciparum	parasite growth, SYBR Green	D6	blood stage		EC50	38 nM
CCOC(=O)C1(Cc2ccc(-c3ccccc3)cc2)Oc2cc(F)ccc2N(Cc2ccc(-c3ccccc3)cc2)C1=O (stereo not shown)	Arabidopsis thaliana	root length, petri dish germination	Col-0, 1/2 MS medium	50 µg/mL, 7 days, 22 °C, dark		inhibition	42.3%
CC(C)(C)OC(=O)N1CCN(c2ccc(-c3ccc4ncnc(Nc5ccc(OCc6cccc(F)c6)c(Cl)c5)c4c3)cc2)CC1	Plasmodium falciparum	parasite growth, SYBR Green	D6	blood stage		EC50	860 nM
C[N+]1=C2C(c3ccc([N+](=O)[O-])cc3)=[N+]([O-])c3ccccc3N2CCC1	Fusobacterium nucleatum					MIC90	1 µg/mL
O=S(=O)(c1ccc(-c2ccc3ncnc(Nc4ccc(OCc5cccc(F)c5)c(Cl)c4)c3c2)cc1)N1CCOCC1	Plasmodium falciparum	parasite growth, SYBR Green fluorescence	C235 (TM91C235), drug-resistant			EC50	350 nM
CCOC(=O)C1(CC#N)Oc2cc(F)ccc2N(CC#N)C1=O (stereo not shown)	Arabidopsis thaliana	stem length, petri dish germination	Col-0, 1/2 MS medium	200 µg/mL, 7 days, 22 °C, dark		inhibition	91.8%
Fc1cccc(COc2ccc(Nc3ncnc4ccc(-c5cccc(N6CCSCC6)c5)cc34)cc2Cl)c1	Plasmodium falciparum	parasite growth, SYBR Green fluorescence	W2, drug-resistant			EC50	1300 nM
COc1ccc(C2=[N+]([O-])c3ccccc3N3CCN=C23)cc1	Fusobacterium nucleatum					MIC90	≤ 0.06 µg/mL

A few entries again:
SMILES	organism	test	system	setting	how to read	measurement	value
CCOC(=O)C1(Cc2ccc(C#N)cc2)Oc2cc(F)ccc2N(Cc2ccc(C#N)cc2)C1=O (stereo not shown)	Arabidopsis thaliana	stem length, petri dish germination	Col-0, 1/2 MS medium	200 µg/mL, 7 days, 22 °C, dark		inhibition	51.5%
C[C@H]1Cc2c([nH]c3cc(Cl)c(F)cc23)[C@@]2(N1)C(=O)Nc1ccc(Cl)cc12	Plasmodium falciparum	parasite growth	3D7			EC50	1.5 ± 0.2 nM
CCOC(=O)C1(Cc2ccccc2C#N)Oc2cc(F)ccc2N(Cc2ccccc2C#N)C1=O (stereo not shown)	Arabidopsis thaliana	root length, petri dish germination	Col-0, 1/2 MS medium	50 µg/mL, 7 days, 22 °C, dark		inhibition	31.7%
CC(C)[C@H]1NC(=O)[C@H](Cc2ccccc2)NC(=O)[C@@H](C(C)C)NC(=O)[C@@H](C)NC(=O)[C@H](CO)NC(=O)[C@@H](Cc2c(-c3ccc(C4CCCCC4)cc3)[nH]c3ccccc23)NC(=O)[C@@H](CO)NC1=O	Candida albicans	broth dilution				MIC90	> 50 µM
CC(C)C[C@H](NC(=O)[C@H](Cc1ccccc1)NC(=O)[C@H](CCC(N)=O)NC(=O)[C@H](Cc1ccc(O)cc1)NC(=O)[C@H](CCCCN)NC(=O)[C@@H]1CCCN1C(=O)[C@H](CCCNC(=N)N)NC(=O)[C@H](CCC(N)=O)NC(=O)[C@H](Cc1c[nH]c2ccccc12)NC(=O)[C@H](CS)NC(=O)[C@H](Cc1c[nH]c2ccccc12)NC(=O)[C@H](Cc1ccccc1)NC(=O)[C@H](CCCNC(=N)N)NC(=O)[C@H](CCCCN)NC(=O)[C@H](CCCCN)NC(=O)[C@H](CCCCN)NC(=O)[C@@H](NC(=O)[C@@H](NC(=O)[C@H](CC(C)C)NC(=O)[C@@H](N)CO)C(C)C)[C@@H](C)O)C(=O)O	Micrococcus luteus		NCTC 2665			MBC	8 µg/mL (≈ 3.03 µM)
C#CCN1C(=O)C(CC#C)(C(=O)OCC)Oc2ccccc21 (stereo not shown)	Arabidopsis thaliana	measured: KARI	Col-0, leaves	concentration not given, 72 h, 30-day-old plants	reference: water-treated	mRNA level	~4 fold
